{"data": "Published values collected from several papers", "note": "Each numbered part is a random draw from the data of one study; scales do not carry over between parts. Positions count from the first letter of the parent shown."}
{"data": "Set 1", "target": "RNA binding protein fox-1 homolog 2, RRM domain, GST-SBP tag (RBFOX2, Homo sapiens, UniProt O43251-10, residues 100-194)", "method": "RNA Bind-n-Seq", "form": "RNA", "medium": "in vitro", "tested at": "365 nM", "notes": "natural RNA segment, single round, ends assumed", "relative to": "no-protein control", "direction": "higher = stronger binding", "shared flanks, not repeated": "GGGAGUUCUACAGUCCGACGAUC … UGGAAUUCUCGGGUGCCAA", "Target sequence (chain)": "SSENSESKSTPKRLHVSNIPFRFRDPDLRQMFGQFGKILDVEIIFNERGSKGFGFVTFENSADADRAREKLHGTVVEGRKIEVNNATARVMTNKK"}
{"Oligonucleotide": "CUUGUGAUUUCUGGCAUCUCUGUGGGGUGAGGUGUUCUGUUACUCUUCACAUUCAAAGACUGUCACCCAUGAACGUCAGACUUUGCAAAGGGGCUCUCUAAGCUGCACUG", "RBNS enrichment (R)": 0.444}
{"Oligonucleotide": "AUCGGGUUCCCGGUAGCUGCCUGGUGACAGUGGUGGCCAAAUCCUCUGUCCUCCCUGUGGAAUCCCUCUGUGGGGCAGGAUGAGUCCUUUGGUGGCCCUCUACUCUAUUG", "RBNS enrichment (R)": 0.163}
{"Oligonucleotide": "AAAAUUACCUAUCCUGUAAAAAGACUGGUGAAAUUCAACAUGUUUUAAAUAAUUUAAUUGCAUUAUAGCAUAUAAACUAUAAAUGAAAAUGAUCUUUGUCUUUCCUUUAU", "RBNS enrichment (R)": 0.92}
{"Oligonucleotide": "UAGGUUCAGCCAAGGUUUUAUAAGGCUGAUGUCAAUUUCUGUGUUGCCAAGCUCCAAGCCCCAUCUUCUAAAUGGCAAAGGAAGGUGGAUGGCCCCAGCACAGCUUGACC", "RBNS enrichment (R)": 0.376}
{"Oligonucleotide": "UCCCAAGGAGCUUCGUGAACUGGCAGAGGCUGAAGCGAUCCAGUUGGGCCUCUCUUGACUAUAGCAGGCUGCUGCUGCGGCUUGUCUGGACACCUGGGGACUUCCCCGCC", "RBNS enrichment (R)": 0.316}
{"Oligonucleotide": "GGGUGGCCAUGGGCCAAAGGAAAAAGCACUGUCCUAUCUCAAGGUCCACUGUGGAAAUGUCCACCUUGCCCACCUCCAAGGGGCAACGGAUAGACAGAUCAAAUGGUGGC", "RBNS enrichment (R)": 0.241}
{"Oligonucleotide": "GUGUCCUUCUUCCUCAAGUCUUGACAAUUCCCGGGCCCUUCAGUCCCUGAGCAGUCUACUUCUGUGUCUGUCACCACAUCUUGUCUUUUCCCCUCAUUGCAUUUAUUGCA", "RBNS enrichment (R)": 0.421}
{"Oligonucleotide": "AGACUCACUCACUCUUAGUUUUUAAGAACUGGAAAUUUCCCAUCCUCAGAUCCCUUAAAGGAUGAAGAGUUGGCUGUACACUUAGCGGACUUGCCUCUUGUAUGCAAGGA", "RBNS enrichment (R)": 0.404}
{"Oligonucleotide": "CACCAGGUGGCAGCAGCCAUCCGUUAUUAUUUCCAAUGGAGACCUAGCCCAGGCCAAGGUAAAGUUAGUUAAUAGCAUUGGGAUAUAGUCACUGUAAUGGUGCUAUUAAC", "RBNS enrichment (R)": 0.331}
{"Oligonucleotide": "CUUGCUGGGUCACCUUUUCCUGAGGAAUGAUACAGAAGAGUGUUUUUUCAUAAACUGGACCAUAAUUCUUCAUGUUUACCAUGGAGAGUUUUACAGAAAUUUGGCUGCAC", "RBNS enrichment (R)": 0.355}
{"Oligonucleotide": "UUAUUCUGAAUUUUCUACCUUAGUUAUCAUUAAUGUAGUUCCUCAUUGAACAUGUGAUAAUCUAAUACCUGUGAAAACUGACUAAUCAGCUGCCAAUAAUAUCUAAUAUU", "RBNS enrichment (R)": 0.466}
{"Oligonucleotide": "UUGACGUUUUAUUAAUAUUUUUUAAAUUGUUACGUUUAUAAAUUUGGUACUUAAGGCACAGCCAGUAUGAGACACUGAAUGCGACAUUUAUUAUAAAGAGCUGCUGCACU", "RBNS enrichment (R)": 0.894}
{"data": "Set 2", "target": "ABI1, truncated, D143A, DHFR fusion (Arabidopsis thaliana)", "method": "DHFR PCA, deep sequencing", "medium": "yeast", "notes": "methotrexate growth selection, single substitutions", "together with": "(+)-ABA 1.4 µM", "relative to": "wild-type fitted maximum", "direction": "higher = stronger binding", "starting sequence": "PYL1, truncated, DHFR fusion (Arabidopsis thaliana); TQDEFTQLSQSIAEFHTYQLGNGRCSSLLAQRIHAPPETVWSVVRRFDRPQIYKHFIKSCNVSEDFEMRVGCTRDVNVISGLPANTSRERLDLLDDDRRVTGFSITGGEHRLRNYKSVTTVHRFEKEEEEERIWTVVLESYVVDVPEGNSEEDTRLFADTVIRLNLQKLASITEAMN"}
{"Substitution": "S11F", "relative binding score [%]": 37.3}
{"Substitution": "T135F", "relative binding score [%]": -10.2}
{"Substitution": "F56A", "relative binding score [%]": -0.0205}
{"Substitution": "G81T", "relative binding score [%]": 16.5}
{"Substitution": "P50T", "relative binding score [%]": -4.69}
{"Substitution": "R88W", "relative binding score [%]": 7.57}
{"Substitution": "M176Q", "relative binding score [%]": 40.7}
{"Substitution": "V145I", "relative binding score [%]": 43.3}
{"Substitution": "T17S", "relative binding score [%]": 32}
{"Substitution": "R113Y", "relative binding score [%]": 22}
{"Substitution": "S117M", "relative binding score [%]": 0.319}
{"Substitution": "Y115D", "relative binding score [%]": 0.637}
{"Substitution": "E129H", "relative binding score [%]": 64.9}
{"Substitution": "E38T", "relative binding score [%]": 26.8}
{"Substitution": "E139D", "relative binding score [%]": -6.45}
{"data": "Set 3", "target": "CRIPT, C-terminal peptide", "method": "DHFR complementation, deep sequencing", "medium": "yeast", "notes": "single substitutions, model-inferred values", "relative to": "wild type", "direction": "higher = weaker binding", "starting sequence": "ERBIN, PDZ domain 1 (human); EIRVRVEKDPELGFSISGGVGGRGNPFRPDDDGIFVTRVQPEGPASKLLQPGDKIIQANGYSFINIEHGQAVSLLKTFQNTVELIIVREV; partner TKNYKQTSV"}
{"Substitution": "N65V", "binding free energy change [kcal/mol]": 0.131}
{"Substitution": "N59G", "binding free energy change [kcal/mol]": 0.142}
{"Substitution": "L75Y", "binding free energy change [kcal/mol]": 1.03}
{"Substitution": "V6W", "binding free energy change [kcal/mol]": 1.42}
{"Substitution": "L75E", "binding free energy change [kcal/mol]": 0.549}
{"Substitution": "V4H", "binding free energy change [kcal/mol]": 0.835}
{"Substitution": "F63H", "binding free energy change [kcal/mol]": 0.841}
{"Substitution": "R5N", "binding free energy change [kcal/mol]": 0.134}
{"Substitution": "V20C", "binding free energy change [kcal/mol]": 0.143}
{"Substitution": "N59A", "binding free energy change [kcal/mol]": 0.164}
{"Substitution": "I66Y", "binding free energy change [kcal/mol]": -0.0975}
{"Substitution": "Q79M", "binding free energy change [kcal/mol]": 0.0445}
{"Substitution": "I85Y", "binding free energy change [kcal/mol]": -0.0477}
{"Substitution": "G60H", "binding free energy change [kcal/mol]": 0.188}
{"Substitution": "N25L", "binding free energy change [kcal/mol]": 1.04}
{"Substitution": "P51R", "binding free energy change [kcal/mol]": 0.218}
{"Substitution": "R23W", "binding free energy change [kcal/mol]": -0.549}
{"Substitution": "D31P", "binding free energy change [kcal/mol]": 1.44}
{"Substitution": "N59T", "binding free energy change [kcal/mol]": 1.3}
{"data": "Set 4", "target": "CCNB1, cyclin fold, Cln2 fusion (human)", "method": "yeast growth competition, sequencing", "medium": "yeast", "notes": "weak parent motif", "relative to": "not given", "direction": "higher = stronger binding", "starting sequence": "SLBP docking peptide (human); ARYKRKLLINDFG"}
{"Substitution": "R5D", "normalised enrichment score": 0.528}
{"Substitution": "L8E", "normalised enrichment score": 0.801}
{"Substitution": "K4I", "normalised enrichment score": 0.282}
{"Substitution": "L7I", "normalised enrichment score": -1.01}
{"Substitution": "N10L", "normalised enrichment score": 1.3}
{"Substitution": "L8V", "normalised enrichment score": 0.715}
{"Substitution": "G13K", "normalised enrichment score": 1.18}
{"Substitution": "K6Y", "normalised enrichment score": 0.423}
{"Substitution": "R2C", "normalised enrichment score": 0.244}
{"Substitution": "L8M", "normalised enrichment score": 1.43}
{"Substitution": "G13F", "normalised enrichment score": 1.08}
{"Substitution": "K4N", "normalised enrichment score": 0.739}
{"Substitution": "R2T", "normalised enrichment score": 1.01}
{"Substitution": "I9A", "normalised enrichment score": -0.304}
{"Substitution": "I9R", "normalised enrichment score": 0.972}
{"Substitution": "L7R", "normalised enrichment score": 0.0755}
{"Substitution": "D11M", "normalised enrichment score": 0.863}
{"Substitution": "N10E", "normalised enrichment score": 0.738}
{"Substitution": "A1D", "normalised enrichment score": 0.472}
{"Substitution": "R5N", "normalised enrichment score": 0.198}
{"Substitution": "F12S", "normalised enrichment score": 0.485}
{"Substitution": "Y3A", "normalised enrichment score": 2.53}
{"Substitution": "K6S", "normalised enrichment score": -0.313}
{"Substitution": "K4M", "normalised enrichment score": 0.496}
{"Substitution": "L7E", "normalised enrichment score": 0.507}
{"data": "Further values, each from its own experiment"}
{"Substance": "PhoQ, residues 284 288 289 292 302 303 NLMGRA", "target": "PhoP, residues 12 14 15 18 19 NIMAP (Escherichia coli, UniProt P23836)", "assay": "Sort-seq, item: YFP reporter", "system": "E. coli", "setting": "PhoQ-PhoP variant library, together with: 10 µM Mg2+", "how to read": "relative to: high Mg2+ state, higher = stronger signaling", "endpoint": "fold induction", "result": 0.964}
{"note": "Repeated from above (set 1):"}
{"Oligonucleotide": "AAAAUUACCUAUCCUGUAAAAAGACUGGUGAAAUUCAACAUGUUUUAAAUAAUUUAAUUGCAUUAUAGCAUAUAAACUAUAAAUGAAAAUGAUCUUUGUCUUUCCUUUAU", "RBNS enrichment (R)": 0.92}
{"Oligonucleotide": "UAGGUUCAGCCAAGGUUUUAUAAGGCUGAUGUCAAUUUCUGUGUUGCCAAGCUCCAAGCCCCAUCUUCUAAAUGGCAAAGGAAGGUGGAUGGCCCCAGCACAGCUUGACC", "RBNS enrichment (R)": 0.376}
{"Oligonucleotide": "UCCCAAGGAGCUUCGUGAACUGGCAGAGGCUGAAGCGAUCCAGUUGGGCCUCUCUUGACUAUAGCAGGCUGCUGCUGCGGCUUGUCUGGACACCUGGGGACUUCCCCGCC", "RBNS enrichment (R)": 0.316}
{"Oligonucleotide": "GGGUGGCCAUGGGCCAAAGGAAAAAGCACUGUCCUAUCUCAAGGUCCACUGUGGAAAUGUCCACCUUGCCCACCUCCAAGGGGCAACGGAUAGACAGAUCAAAUGGUGGC", "RBNS enrichment (R)": 0.241}
{"Oligonucleotide": "GUGUCCUUCUUCCUCAAGUCUUGACAAUUCCCGGGCCCUUCAGUCCCUGAGCAGUCUACUUCUGUGUCUGUCACCACAUCUUGUCUUUUCCCCUCAUUGCAUUUAUUGCA", "RBNS enrichment (R)": 0.421}
{"Oligonucleotide": "AGACUCACUCACUCUUAGUUUUUAAGAACUGGAAAUUUCCCAUCCUCAGAUCCCUUAAAGGAUGAAGAGUUGGCUGUACACUUAGCGGACUUGCCUCUUGUAUGCAAGGA", "RBNS enrichment (R)": 0.404}
{"Oligonucleotide": "CACCAGGUGGCAGCAGCCAUCCGUUAUUAUUUCCAAUGGAGACCUAGCCCAGGCCAAGGUAAAGUUAGUUAAUAGCAUUGGGAUAUAGUCACUGUAAUGGUGCUAUUAAC", "RBNS enrichment (R)": 0.331}
{"Oligonucleotide": "CUUGCUGGGUCACCUUUUCCUGAGGAAUGAUACAGAAGAGUGUUUUUUCAUAAACUGGACCAUAAUUCUUCAUGUUUACCAUGGAGAGUUUUACAGAAAUUUGGCUGCAC", "RBNS enrichment (R)": 0.355}
{"Oligonucleotide": "UUAUUCUGAAUUUUCUACCUUAGUUAUCAUUAAUGUAGUUCCUCAUUGAACAUGUGAUAAUCUAAUACCUGUGAAAACUGACUAAUCAGCUGCCAAUAAUAUCUAAUAUU", "RBNS enrichment (R)": 0.466}
